Measured values of several laboratories.
Numbered parts are unrelated; each lists some results of a single study. Changes are numbered by the printed parent chain.

Series 1 — technique: protein-binding microarray; form: double-stranded DNA, one strand shown; matrix: in vitro; concentration: not given; reading: higher = stronger binding
Target: Protein max, full length (MAX, Homo sapiens, UniProt P61244-2, residues 1-151)
Setting: k-mer, scored over probes, only values ≥0.25
Strand	E-score
ATCCATGC	0.339
CATATGGA	0.269
ATGCCACG	0.399
AACGTGAT	0.431
CGTGCTGC	0.405
ACGTGGTG	0.42
AACTCGTG	0.391
GCATGCAA	0.376
CCCACCCC	0.352
CACACGTA	0.252
AACCTCAT	0.291
ATTGCATG	0.326
ACGTGAGG	0.383
AAGCATGG	0.445
CATGGCGA	0.283
CACGCATC	0.345
ATGCGGTA	0.306
ACCCACCC	0.32
CACGGGGA	0.361
CGTGCGAC	0.319
CACGTGGC	0.497
ACGGGGTG	0.282
AATGTGGC	0.292
CACGCGAG	0.393
AACACGCC	0.347

Series 2 — technique: DHFR PCA, deep sequencing; matrix: yeast; added: (+)-ABA 0.39 µM; reference: wild-type fitted maximum; reading: higher = stronger binding
Target: ABI1, truncated, D143A, DHFR fusion (Arabidopsis thaliana)
Setting: methotrexate growth selection, single substitutions
Parent: PYL1, truncated, DHFR fusion (Arabidopsis thaliana); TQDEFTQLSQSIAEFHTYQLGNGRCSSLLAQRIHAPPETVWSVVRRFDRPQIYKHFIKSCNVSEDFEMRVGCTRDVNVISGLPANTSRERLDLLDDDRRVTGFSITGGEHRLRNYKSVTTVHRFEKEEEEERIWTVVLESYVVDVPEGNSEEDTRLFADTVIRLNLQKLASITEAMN
Change	relative binding score [%]
F47K	-10.9
I52N	-12
T106N	-3.02
Y18F	1.88
G21H	38.8
L28D	3.96
G81D	7.67
T173P	-6.11
A158M	4.78
R24G	0.325
E14Y	-2.38
T119Y	-5.55
V43H	-4.49
I79R	-2.95
D144W	-9.44
R155H	2.8
E139A	11.3
S150Q	-0.119
Q19Y	11.4
I105Q	-19.3
W41V	-6.7
V145T	-14.6
F124W	52.3

Series 3 — target: CCNB3, cyclin fold, Cln2 fusion (human); technique: yeast growth competition, sequencing; matrix: yeast; setting: strong parent motif; reference: not given; reading: higher = stronger binding
Parent: SCAPER docking peptide (human); SNARRSLNFGGST; partner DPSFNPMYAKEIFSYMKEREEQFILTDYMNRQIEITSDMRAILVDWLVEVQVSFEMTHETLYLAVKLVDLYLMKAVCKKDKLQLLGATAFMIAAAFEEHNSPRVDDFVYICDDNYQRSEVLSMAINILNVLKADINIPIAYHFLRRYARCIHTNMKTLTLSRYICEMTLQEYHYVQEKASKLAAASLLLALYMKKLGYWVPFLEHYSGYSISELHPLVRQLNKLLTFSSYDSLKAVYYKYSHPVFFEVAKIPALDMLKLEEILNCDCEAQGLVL
Change	normalised enrichment score
SNARRSLNFGGSF [T13F]	1.21
WNARRSLNFGGST [S1W]	2.79
SNRRRSLNFGGST [A3R]	-0.266
SNARRSLNFGGSQ [T13Q]	1.47
SNARRSLNFGWST [G11W]	0.71
SNARRSLWFGGST [N8W]	1
SNARRSLEFGGST [N8E]	1.07
SNDRRSLNFGGST [A3D]	0.0925
SNARRSWNFGGST [L7W]	0.063
SNARRSLNFGGNT [S12N]	1.85
SNADRSLNFGGST [R4D]	0.294
SNARRSLNFGCST [G11C]	1.22
SNARRSLNFGGGT [S12G]	1.48
SNARRSLNFGGSK [T13K]	1.44
SNNRRSLNFGGST [A3N]	0.483
SNARRSLNFGGSV [T13V]	1.6
SNAIRSLNFGGST [R4I]	0.698

Series 4 — technique: aptamer microarray, sandwich; form: DNA with 2'F-ANA; matrix: in vitro; concentration: 200 nM; added: Cy3 exosite-II aptamer, 400 nM; reading: higher = stronger binding; strand: GGTTGGTGTGGTTGG
Target: Prothrombin, mature alpha-thrombin (F2, Homo sapiens, UniProt P00734)
Setting: whole 15-mer aptamer, many near background
Modification	mean fluorescence intensity [a.u.]
2'F-ANA at 2 3 4 8 9 10 12 14 15	180
2'F-ANA at 1 5 7 9	114
2'F-ANA at 2 3 5 10 12 13 15	54.5
2'F-ANA at 2 3 4 6 7 11 14	262
2'F-ANA at 2 10 13 14 15	81.1
2'F-ANA at 2 6 7 9 12 15	633
2'F-ANA at 1 2 3 5 7 8 9 10 11 13 14	60.9
2'F-ANA at 2 3 4 6 10 14 15	154
2'F-ANA at 4 5 6 7 13 14	45.8
2'F-ANA at 2 3 4 5 6 7 8 13	69
2'F-ANA at 2 3 4 5 7 8 11 15	92.7
2'F-ANA at 1 3 4 6 8 9 10 13 15	58.2
2'F-ANA at 1 4 5 6 7 10 12 13 15	48.1
2'F-ANA at 3 6 8 9 10 11 15	403
2'F-ANA at 3 8 9 11 12	1250
2'F-ANA at 3 6 7 8 12 15	1330
2'F-ANA at 7 10 11 12 13	206
2'F-ANA at 2 4 5 9 11 12 13	78.9
2'F-ANA at 4 8 9 12 14	112
2'F-ANA at 2 3 6 8 9 10	325
2'F-ANA at 8 9 10 12 13 15	174
2'F-ANA at 2 3 6 7 8 10 12 13 14	271
2'F-ANA at 1 4 6 7 10 11 12	58
2'F-ANA at 2 3 4 5 6 8 10 11 12	56.1
2'F-ANA at 1 2 4 5 8 11	50.5

Series 5 — technique: RNA Bind-n-Seq; form: RNA; matrix: in vitro; concentration: 365 nM; reference: no-protein control; reading: higher = stronger binding
Target: RNA binding protein fox-1 homolog 2, RRM domain, GST-SBP tag (RBFOX2, Homo sapiens, UniProt O43251-10, residues 100-194)
Setting: natural RNA segment, single round, ends assumed
Shared flanks, not repeated: GGGAGUUCUACAGUCCGACGAUC … UGGAAUUCUCGGGUGCCAA
Residues (chain): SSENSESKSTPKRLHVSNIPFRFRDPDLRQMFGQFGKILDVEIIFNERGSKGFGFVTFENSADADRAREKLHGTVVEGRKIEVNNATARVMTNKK
Strand	RBNS enrichment (R)
CUACUGUUCAUUGUAAAGGGUCAGGCCCUAUCAGCAGCACUGAUGGGAAUAAAAGUAUUAUUGCUUUGAUGGCGUUUGUCUCAGCAAGUCUGUAGUACAUAUCCCCACUA	0.272
GAAGCCCUCUGAGAAAGCAGGGCAAAUAGGGUGUAAGGGGCUUGGUUUUUCUGUUAGCUUGGACCACUGCCUCAUCAGACAAUAUCAGCAGAUGUGCCUCAGUUUCCCCA	0.431
GGUACUUUCUCUGUCCUCUCAACUGAGGACAGUGACUAGUUAAUCUUGACAUAAUUGCAUUUGGCUUGUCAUGUGCCUGGCAUUAAAAACAAUAUUGAGUUCACAUAAUA	1.1
GCCGGGACUGGAGUCCCUGGGCCCUCAACACUGGAUGCAAAUGUGUUACACUGGAGCCUGCUGCAGGCCAGCUCUCUGCUCUUCACUGCUUCCCUUGACUGGGGAGACUG	1.87
UCCACUCCCCCUGCCUGCCCCCAGCAUCUGGACAAGCUAAUAGCAAAUAUUACCCAUUGCUAUCAAGGGAGGAGGGGGUAGUCUGUAGAACCCAUGUGUGACAGUCAUGU	1.66
AAGAAUACCACACUUUAAUAUUAAAUAUUCAUAAGGUCUAGUAUCUUGAUAAUAAUGUAGAUGUUUUAAUAACAAUUUUUGUCCUUCUUAAAAUAAAAUGAAAGAAACUU	1.25
ACAUCAUUCUUUAAAAGAAUAGUUUAAUACUUUUGGUUAUUCCAAUCUUCAAUGUUAACCCAAAGGAUUCUGAGAUAAAAAUUAUGUGUCAUCUAAACUUCAGUUUACAG	0.401
CAAGUGAUUGUGGACUCCUGGCUCAUCAACUCAUGCCCUCUUCCAUACCCUCAUGGCUUCACAGUCAAGGUCAGCAGGAAGCUCAUUGGUCACCUUCAUGGUGACCUCUC	0.262
CUAUGUUGACAUUUCGGGGAUAUUGUGUUCAAGAAUGAUUCCAAAUUUGAGCCACCAAAAUACACUGCAUUACAGAAAUUGCCACUUGAUUCUGUACUCUUAACCUUUGG	3.55
UGGCCUAUGGCGAGAAAGGCUAUGGGACAGUGAUCCCCCCACAGGCCUCGCUGGUCUUUCACGUCCUCCUGAUUGACGUGCACAACCCGAAGGACGCUGUCCAGCUAGAG	0.221
GCCGUUUGCAAGGGACUUGCUUUGCACAGUUUUGCUGUACUUUCACAUUUUAUUAUGUAGCAAGAUACAUGGUGAUUUUUUUUUUUUUCAUUUAGCCUGAUUUUCCAACG	0.989
UUUCCAGAAUAGUGUUUAGCUCACCUAGGGGGAUAUGUUUGUAUACACAUUUGCAUAUACCCACAUGGGGACAUAAGCUAAUUUUUUUACAGGACACAGAAUUCUGUUCA	0.377

A few entries again (series 1):
Strand	E-score
ATCCATGC	0.339
CATATGGA	0.269
ATGCCACG	0.399
AACGTGAT	0.431
CGTGCTGC	0.405
ACGTGGTG	0.42
AACTCGTG	0.391
GCATGCAA	0.376
CCCACCCC	0.352
CACACGTA	0.252
AACCTCAT	0.291
ATTGCATG	0.326
ACGTGAGG	0.383
AAGCATGG	0.445
CATGGCGA	0.283
CACGCATC	0.345
